Published values pooled from the literature.
Lines come from different studies, so protocols differ. Numbers after ± are the reported error.

COc1cccc(-c2ccc(NC(=O)C3=C(C(=O)O)CCC3)c(F)c2)c1 — Vd/F (male human, plasma; oral, 30 mg, single dose, fasted, healthy volunteers): 12.4 L
Cc1nc2cccc(OCC(C)(C)C(=O)NC(C)C)c2c(N)c1C(=O)O — Cmax (Sprague-Dawley rat both sexes, plasma; dietary, 30 mg/kg/day, day 90): 39 ng/mL
CC(=O)Oc1ccc(C(c2ccc(OC(C)=O)cc2)c2ccccn2)cc1 — EC20 (cytochrome c release, ELISA; BALB/cByJ female mouse liver mitochondria; 30 min; reference: alamethicin maximal release): > 400 µM
S=C(NCCCc1c[nH]cn1)NCCCN(Cc1ccc(Cl)c(Cl)c1)c1ccc(Br)cn1 — concentration (male C57BL/6 mouse, plasma; intraperitoneal, 30 mg/kg, 12 h): 109 ng/mL
CC[C@@H]1CN(C(=O)NCC(F)(F)F)C[C@@H]1c1cnc2cnc3[nH]ccc3n12 — pharmacokinetic parameters (population pharmacokinetic model; human; together with: CYP3A, CYP2D6 inhibitors, pH modifiers): no effect
CC12CCC(CC1=O)C2(C)C (stereo not drawn) — detoxification rate ratio (headspace GC; liver microsomes; 15 min, pH 7.4; reference: pygmy rabbit over mountain cottontail): 7.6 fold
CN(CCOc1ccc(CC2SC(=O)NC2=O)cc1)c1ccccn1 (stereo not drawn) — MRT(0-24 h) (Sprague-Dawley rat, female, plasma; intraperitoneal, 5 mg/kg of dasatinib, together with: dasatinib co-dosed): 3.04 ± 0.79 h
CC[C@H](C)[C@H](NC(=O)[C@H](CC(C)C)NC(=O)[C@H](Cc1c[nH]c2ccccc12)NC(=O)[C@H](C)NC(=O)[C@@H](NC(=O)[C@H](Cc1ccccc1)NC(=O)[C@H](CC(=O)O)NC(=O)[C@H](CCCNC(=N)N)NC(=O)[C@H](C)NC(=O)[C@H](C)NC(=O)[C@H](CC(C)C)NC(=O)[C@H](C)NC(=O)[C@H](CC(=O)O)NC(=O)[C@H](CC(C)C)NC(=O)[C@@H](NC(=O)[C@@H](NC(=O)[C@H](C)NC(=O)[C@H](CC(C)C)NC(=O)[C@H](CCC(=O)O)NC(=O)[C@H](CO)NC(=O)[C@H](CO)NC(=O)[C@H](Cc1ccccc1)NC(=O)[C@@H](NC(=O)CNC(=O)[C@H](CCC(=O)O)NC(=O)CNC(=O)[C@@H](N)Cc1cnc[nH]1)[C@@H](C)O)[C@@H](C)O)[C@@H](C)CC)[C@@H](C)CC)C(=O)N[C@@H](C)C(=O)N[C@H](C(=O)N[C@@H](CCCCN)C(=O)N[C@H](C(=O)N[C@H](C(=O)N[C@@H](CC(=O)O)C(=O)N[C@@H](CCCCN)C(=O)N[C@@H](CCCCN)C(=O)N[C@@H](CCCCN)C(=O)N[C@@H](CCCCN)C(=O)N[C@@H](CCCCN)C(=O)N[C@@H](CCCCN)C(N)=O)[C@@H](C)O)[C@@H](C)CC)[C@@H](C)O — Vss over body weight (healthy human subjects, plasma; intravenous infusion, 1 mg glepaglutide): ~20%
C[C@H](Oc1ccc(-c2nc(-c3ccc4[nH]cnc4c3)no2)cc1C(F)(F)F)C(F)(F)F — plasma concentration (cynomolgus monkey, aneurysm model, plasma; 0.1 mg/kg once daily, 1 h post-dose, 4 weeks dosing): 14 ± 4 nM
O=C([O-])CN1CCN(CC(=O)[O-])CCN(CC(=O)O)CCN(CC(=O)[O-])CC1.[Gd+3] — relaxivity r1 (phosphate buffer; pH 7.4, 37 °C, 60 MHz, 1.5 T): 3.2 mM⁻¹ s⁻¹
CC(C)c1c(C(=O)Nc2ccccc2)c(-c2ccccc2)c(-c2ccc(F)cc2)n1CC[C@@H](O)C[C@@H](O)CC(=O)O — EC20 (mitochondrial swelling; BALB/cByJ female mouse liver mitochondria; 30 min, together with: succinate + rotenone; reference: CaCl2 maximal swelling): 5.6 µM
NC(=O)CC[C@@H]1NC(=O)[C@H](Cc2ccccc2)NC(=O)[C@H](Cc2ccc(O)cc2)NC(=O)CCSSC[C@@H](C(=O)N2CCC[C@H]2C(=O)N[C@H](CCCN=C(N)N)C(=O)NCC(N)=O)NC(=O)[C@H](CC(N)=O)NC1=O — long-term stability (UPLC-MS/MS; human plasma; 3.05 pg/mL, 30 days, -20 °C): 109%
CN1C(C(=O)Nc2ccccn2)=C(O)c2ccccc2S1(=O)=O — EC20 (mitochondrial swelling; BALB/cByJ female mouse liver mitochondria; 30 min, together with: succinate + rotenone; reference: CaCl2 maximal swelling): > 200 µM
CC(=O)N[C@@H](Cc1ccccc1)C(=O)N[C@H]1CCCNC(=O)[C@H](CCCNC(=N)N)NC(=O)[C@H](Cc2c[nH]c3ccccc23)NC(=O)[C@@H](CC2CCCCC2)NC(=O)[C@@H]2CCCN2C1=O — elimination half-life (C57BL/6J mice, plasma; subcutaneous, 1 mg/kg): 19.5 min
Oc1ccc(-c2nc(-c3ccc(Oc4ccc(C(F)(F)F)cc4)cc3)no2)cc1 — elimination half-life (ICR mice, female, plasma; oral, 50 mg/kg): 2400 min
